Assay results collected from several papers.
Each numbered part is a random draw from the data of one study; scales do not carry over between parts.
Sequence of UniProt P29322 (whole entry, looked up): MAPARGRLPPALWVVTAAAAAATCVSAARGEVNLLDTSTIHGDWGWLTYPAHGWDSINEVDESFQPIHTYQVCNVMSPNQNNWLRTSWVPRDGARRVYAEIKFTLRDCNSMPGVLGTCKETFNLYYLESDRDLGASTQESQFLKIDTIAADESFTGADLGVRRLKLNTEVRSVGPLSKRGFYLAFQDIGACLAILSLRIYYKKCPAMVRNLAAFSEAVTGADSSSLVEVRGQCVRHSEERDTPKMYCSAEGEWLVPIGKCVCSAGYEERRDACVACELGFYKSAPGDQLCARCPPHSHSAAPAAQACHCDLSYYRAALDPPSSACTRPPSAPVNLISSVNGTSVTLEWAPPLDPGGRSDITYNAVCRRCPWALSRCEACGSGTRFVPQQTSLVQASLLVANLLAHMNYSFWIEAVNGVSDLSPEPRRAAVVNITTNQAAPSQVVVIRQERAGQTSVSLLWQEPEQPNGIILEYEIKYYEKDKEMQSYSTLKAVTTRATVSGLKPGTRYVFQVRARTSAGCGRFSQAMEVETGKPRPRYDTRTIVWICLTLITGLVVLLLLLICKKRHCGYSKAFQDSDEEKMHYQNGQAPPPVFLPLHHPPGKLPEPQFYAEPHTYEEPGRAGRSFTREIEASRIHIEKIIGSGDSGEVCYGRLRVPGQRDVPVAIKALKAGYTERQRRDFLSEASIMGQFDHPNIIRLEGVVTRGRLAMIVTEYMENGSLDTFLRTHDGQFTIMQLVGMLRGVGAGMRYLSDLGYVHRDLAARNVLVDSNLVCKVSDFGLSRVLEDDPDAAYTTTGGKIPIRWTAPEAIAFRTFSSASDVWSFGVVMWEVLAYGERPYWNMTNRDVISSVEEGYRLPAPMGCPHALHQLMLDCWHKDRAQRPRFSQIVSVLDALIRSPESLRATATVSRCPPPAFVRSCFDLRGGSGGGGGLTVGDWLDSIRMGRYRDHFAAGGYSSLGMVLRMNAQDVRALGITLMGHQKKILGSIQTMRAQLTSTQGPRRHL
Sequence of UniProt Q56UN5 (whole entry, looked up): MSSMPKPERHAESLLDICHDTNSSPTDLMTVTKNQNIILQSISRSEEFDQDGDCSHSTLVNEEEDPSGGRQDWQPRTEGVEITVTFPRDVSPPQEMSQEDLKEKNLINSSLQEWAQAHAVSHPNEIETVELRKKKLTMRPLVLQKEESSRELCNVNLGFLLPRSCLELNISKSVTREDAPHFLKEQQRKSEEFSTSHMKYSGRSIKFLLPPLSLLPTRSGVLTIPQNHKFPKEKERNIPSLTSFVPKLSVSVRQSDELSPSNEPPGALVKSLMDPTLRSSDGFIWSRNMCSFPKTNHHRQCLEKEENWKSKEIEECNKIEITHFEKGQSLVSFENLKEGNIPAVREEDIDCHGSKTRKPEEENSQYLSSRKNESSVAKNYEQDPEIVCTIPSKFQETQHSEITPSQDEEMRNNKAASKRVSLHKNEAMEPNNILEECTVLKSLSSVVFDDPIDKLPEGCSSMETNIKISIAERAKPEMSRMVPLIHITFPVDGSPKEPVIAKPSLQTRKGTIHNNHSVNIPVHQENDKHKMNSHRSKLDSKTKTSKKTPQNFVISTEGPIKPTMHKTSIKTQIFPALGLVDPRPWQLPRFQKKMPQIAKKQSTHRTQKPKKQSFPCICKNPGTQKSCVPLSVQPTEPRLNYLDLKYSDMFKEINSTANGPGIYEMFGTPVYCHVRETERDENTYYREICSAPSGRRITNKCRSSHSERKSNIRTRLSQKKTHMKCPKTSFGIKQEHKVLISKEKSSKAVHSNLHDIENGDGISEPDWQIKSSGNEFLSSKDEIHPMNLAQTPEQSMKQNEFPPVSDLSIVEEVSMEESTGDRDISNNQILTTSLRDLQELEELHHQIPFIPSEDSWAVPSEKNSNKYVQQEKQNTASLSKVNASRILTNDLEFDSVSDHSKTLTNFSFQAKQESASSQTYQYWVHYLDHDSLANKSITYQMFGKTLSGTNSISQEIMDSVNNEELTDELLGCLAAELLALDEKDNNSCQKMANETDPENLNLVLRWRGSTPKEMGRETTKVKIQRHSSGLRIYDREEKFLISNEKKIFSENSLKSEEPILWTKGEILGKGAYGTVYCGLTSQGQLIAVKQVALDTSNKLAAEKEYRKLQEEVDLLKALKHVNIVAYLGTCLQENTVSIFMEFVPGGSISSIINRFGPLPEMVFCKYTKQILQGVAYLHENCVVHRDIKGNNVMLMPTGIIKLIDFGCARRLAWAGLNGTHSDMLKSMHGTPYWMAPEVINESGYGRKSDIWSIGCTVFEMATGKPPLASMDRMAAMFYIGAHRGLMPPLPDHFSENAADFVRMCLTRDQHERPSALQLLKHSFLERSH
Sequence of UniProt P29597 (whole entry, looked up): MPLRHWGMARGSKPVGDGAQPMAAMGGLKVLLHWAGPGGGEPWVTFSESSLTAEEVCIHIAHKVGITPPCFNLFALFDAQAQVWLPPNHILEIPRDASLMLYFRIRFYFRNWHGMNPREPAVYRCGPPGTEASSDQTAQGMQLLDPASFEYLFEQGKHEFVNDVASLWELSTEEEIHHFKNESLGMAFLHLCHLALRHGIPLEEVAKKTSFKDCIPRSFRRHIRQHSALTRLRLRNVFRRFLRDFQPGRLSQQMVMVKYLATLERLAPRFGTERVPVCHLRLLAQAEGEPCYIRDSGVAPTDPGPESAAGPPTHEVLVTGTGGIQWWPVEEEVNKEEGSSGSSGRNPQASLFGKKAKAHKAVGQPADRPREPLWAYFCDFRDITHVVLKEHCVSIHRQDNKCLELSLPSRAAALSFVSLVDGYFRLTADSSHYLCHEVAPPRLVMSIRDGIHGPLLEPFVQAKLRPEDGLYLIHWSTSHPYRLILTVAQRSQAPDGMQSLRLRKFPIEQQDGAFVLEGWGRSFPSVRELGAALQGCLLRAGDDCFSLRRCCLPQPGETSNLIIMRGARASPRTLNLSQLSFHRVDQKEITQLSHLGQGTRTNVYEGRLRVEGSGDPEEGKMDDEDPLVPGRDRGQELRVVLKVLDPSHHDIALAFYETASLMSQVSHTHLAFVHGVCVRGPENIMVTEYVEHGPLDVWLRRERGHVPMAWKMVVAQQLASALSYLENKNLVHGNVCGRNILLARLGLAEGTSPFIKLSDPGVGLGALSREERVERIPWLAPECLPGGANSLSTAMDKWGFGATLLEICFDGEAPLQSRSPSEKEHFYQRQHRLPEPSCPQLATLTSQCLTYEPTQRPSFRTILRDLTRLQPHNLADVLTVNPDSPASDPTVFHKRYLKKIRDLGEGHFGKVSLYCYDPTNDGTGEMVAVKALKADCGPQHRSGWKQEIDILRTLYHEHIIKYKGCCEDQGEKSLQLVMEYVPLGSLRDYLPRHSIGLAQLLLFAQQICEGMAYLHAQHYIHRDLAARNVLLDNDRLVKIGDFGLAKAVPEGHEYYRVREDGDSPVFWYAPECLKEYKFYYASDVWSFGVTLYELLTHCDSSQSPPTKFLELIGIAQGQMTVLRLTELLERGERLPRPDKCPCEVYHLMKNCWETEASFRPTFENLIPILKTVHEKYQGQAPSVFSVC
Sequence of UniProt P11362 (whole entry, looked up): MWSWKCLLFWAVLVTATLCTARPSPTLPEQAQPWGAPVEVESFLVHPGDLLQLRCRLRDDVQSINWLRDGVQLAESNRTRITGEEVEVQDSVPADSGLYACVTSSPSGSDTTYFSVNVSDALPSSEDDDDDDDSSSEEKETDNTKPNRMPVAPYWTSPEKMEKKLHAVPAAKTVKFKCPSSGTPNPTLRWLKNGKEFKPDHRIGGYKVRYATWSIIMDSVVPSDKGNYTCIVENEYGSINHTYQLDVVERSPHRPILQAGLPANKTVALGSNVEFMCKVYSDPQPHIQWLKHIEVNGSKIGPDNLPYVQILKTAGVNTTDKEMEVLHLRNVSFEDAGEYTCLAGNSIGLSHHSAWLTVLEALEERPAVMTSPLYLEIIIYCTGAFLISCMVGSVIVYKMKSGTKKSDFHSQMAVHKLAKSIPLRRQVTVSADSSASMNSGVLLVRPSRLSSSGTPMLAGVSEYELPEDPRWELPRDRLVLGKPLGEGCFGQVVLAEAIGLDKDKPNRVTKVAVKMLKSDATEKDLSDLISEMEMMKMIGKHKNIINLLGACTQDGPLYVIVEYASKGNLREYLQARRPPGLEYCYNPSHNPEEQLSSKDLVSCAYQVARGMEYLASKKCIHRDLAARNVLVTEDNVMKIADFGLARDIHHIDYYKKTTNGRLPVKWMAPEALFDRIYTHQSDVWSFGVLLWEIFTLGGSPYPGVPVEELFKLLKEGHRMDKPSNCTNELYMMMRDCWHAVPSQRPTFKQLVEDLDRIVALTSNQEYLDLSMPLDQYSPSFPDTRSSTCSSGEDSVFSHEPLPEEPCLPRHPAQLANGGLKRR

Sample 1
SMILES: N#Cc1ccc(Nc2ccc3[nH]c(=O)[nH]c3c2)c(Cl)c1
Observed: cell-free assay
Technique: competition with immobilised ligand
Concentration: 1 µM
| target | remaining binding [%] |
| --- | --- |
| MYLK4 (Homo sapiens, UniProt Q86YV6) | 100 |
| FGFR1 (Homo sapiens, UniProt P11362) | 100 |
| MET (Homo sapiens, UniProt P08581, Y1235D) | 95 |
| STK10 (Homo sapiens, UniProt O94804) | 100 |
| EPHA8 (Homo sapiens, UniProt P29322) | 100 |
| STK11 (Homo sapiens, UniProt Q15831) | 100 |
| MKNK2 (Homo sapiens, UniProt Q9HBH9) | 100 |
| MAP3K6 (Homo sapiens, UniProt O95382) | 100 |
| Non-receptor tyrosine-protein kinase TYK2, JH1 (TYK2, Homo sapiens, UniProt P29597) | 100 |
| MAP3K19 (Homo sapiens, UniProt Q56UN5) | 100 |
| TTK (Homo sapiens, UniProt P33981) | 88 |
| TAOK3 (Homo sapiens, UniProt Q9H2K8) | 100 |
| ERN1 (Homo sapiens, UniProt O75460) | 86 |
| SBK1 (Homo sapiens, UniProt Q52WX2) | 93 |
| STK36 (Homo sapiens, UniProt Q9NRP7) | 100 |
| EGFR (Homo sapiens, UniProt P00533, L858R) | 100 |

Sample 2
Target: Ephrin type-A receptor 8 (EPHA8, Homo sapiens, UniProt P29322)
Observed: enzyme activity
Action: inhibitor
Concentration: 0.5 µM
Baseline: control
| SMILES | remaining activity [%] |
| --- | --- |
| COc1cc2ncnc(Nc3cccc(Cl)c3)c2cc1OC | 81.5 |
| CN([C@@H](Cc1ccc(OS(=O)(=O)c2cccc3cnccc23)cc1)C(=O)N1CCN(c2ccccc2)CC1)S(=O)(=O)c1cccc2cnccc12 | 99.6 |
| CCN(CC)C(=O)c1ccc(Nc2nc(OCC3CCCCC3)c3[nH]cnc3n2)cc1 | 92.1 |
| O=C1C(Cl)=C(N2C(=O)CCC2=O)C(=O)c2ccccc21 | 107 |
| CCOc1nc(NC(=O)Cc2cc(OC)ccc2OC)cc(N)c1C#N | 84.2 |
| CN(C)C[C@H]1CCn2c(c(C3=C(c4cn(C)c5ccccc45)C(=O)NC3=O)c3ccccc32)C1 | 102 |
| c1ccc(-c2cnc(Nc3ccc(OCCN4CCCC4)cc3)s2)cc1 | 96.2 |
| Cc1cn(-c2cc(NC(=O)c3ccc(C)c(Nc4nccc(-c5cccnc5)n4)c3)cc(C(F)(F)F)c2)cn1 | 28.4 |
| Nc1cccc(-c2cc3c(Oc4cccc(O)c4)ncnc3[nH]2)c1 | 57.5 |
| O=C1c2ccccc2-c2n[nH]c3cccc1c23 | 92.5 |
| O=c1cc(-c2cccc3c2Sc2ccccc2S3)oc(N2CCOCC2)c1 | 110 |
| COc1cc2ncnc(Nc3ccc(O)c(Br)c3)c2cc1OC | 88.3 |
| O=C(NC(NC(=S)Nc1ccc(F)c([N+](=O)[O-])c1)C(Cl)(Cl)Cl)C(c1ccccc1)c1ccccc1 (stereo not drawn) | 104 |
| CCN(CC)CCNC(=O)c1c(C)[nH]c(/C=C2\C(=O)Nc3ccc(Cl)cc32)c1C | 99.5 |
| Cc1nc2cc3nc(-c4cccs4)cnc3cc2n1C | 100 |
| C[C@@H]1CCN(C(=O)CC#N)C[C@@H]1N(C)c1ncnc2[nH]ccc12 | 109 |
| COc1cc2c(cc1OC)-c1[nH]nc(Nc3cccc(F)c3)c1C2 | 94.2 |
| N#Cc1c(NC(=O)c2cccc3ccccc23)sc2c1CCCC2 | 104 |
| Cn1nc2c3c(cccc31)C(=O)c1ccccc1-2 | 99.4 |
| O=C(Nc1cccc(Nc2nccc(Nc3cccc(C(F)(F)F)c3)n2)c1)C1CC1 | 96.3 |
| N#C/C(=C\c1ccc(O)c(O)c1)C(=O)NCc1ccccc1 | 92 |
| c1ccc(-c2[nH]ncc2-c2ccnc3ccccc23)nc1 | 94.6 |
| Cc1cc2ncc(-c3ccccc3)nc2cc1C | 94.5 |
| Ic1cccc(CSc2nnc(-c3ccncc3)o2)c1 | 91.5 |

Sample 3
Target: Calcium/calmodulin-dependent protein kinase type II subunit alpha (CAMK2A, Homo sapiens, UniProt Q9UQM7)
Sequence of UniProt Q9UQM7 (whole entry, looked up): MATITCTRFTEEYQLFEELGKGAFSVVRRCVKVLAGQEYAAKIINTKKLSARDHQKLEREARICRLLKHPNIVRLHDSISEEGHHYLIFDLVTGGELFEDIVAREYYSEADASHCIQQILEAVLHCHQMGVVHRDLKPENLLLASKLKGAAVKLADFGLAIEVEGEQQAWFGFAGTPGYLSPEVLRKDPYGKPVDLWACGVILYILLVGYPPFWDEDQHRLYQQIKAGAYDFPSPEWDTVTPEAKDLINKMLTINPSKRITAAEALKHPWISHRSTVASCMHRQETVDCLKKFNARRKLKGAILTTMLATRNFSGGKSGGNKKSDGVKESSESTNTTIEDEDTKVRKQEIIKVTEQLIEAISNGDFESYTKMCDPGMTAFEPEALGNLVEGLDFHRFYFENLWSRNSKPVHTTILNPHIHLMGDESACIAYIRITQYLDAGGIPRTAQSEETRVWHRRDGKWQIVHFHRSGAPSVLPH
Observed: enzyme activity
Action: inhibitor
Concentration: 10 µM
| Structure (SMILES) | inhibition |
| --- | --- |
| CC(=C(CCOC(=O)C(C)C)SSC(CCOC(=O)C(C)C)=C(C)N(C=O)Cc1cnc(C)nc1N)N(C=O)Cc1cnc(C)nc1N (stereo in doubt) | -3% |
| C[C@@H]1O[C@@H](OC[C@H]2O[C@@H](Oc3cc(O)c4c(c3)O[C@H](c3ccc(O)c(O)c3)CC4=O)[C@H](O)[C@@H](O)[C@@H]2O)[C@H](O)[C@H](O)[C@H]1O | -6% |
| O=c1ccc2cc3ccoc3cc2o1 | 7% |
| CCOC(=O)[C@H](CCc1ccccc1)N[C@@H](C)C(=O)N1C(=O)N(C)C[C@H]1C(=O)O | -1% |
| COc1ccc(-c2oc3c(CC=C(C)C)c(O)cc(O)c3c(=O)c2O)cc1 | -2% |
| CC(CCC(=O)O)CC(=O)O (stereo not drawn) | -7% |
| N[C@H](C(=O)O)[C@H](O)c1ccc(O)c(O)c1 | -10% |
| CCCCCCCC/C=C\CCCCCCCC(N)=O | -22% |
| N/C(=N\C(=O)c1nc(Cl)c(N)nc1N)NCc1ccccc1 | 2% |
| CCCCc1nc(C)c(CC(=S)N(C)C)c(=O)n1Cc1ccc(-c2ccccc2-c2nnn[nH]2)cc1 | -13% |
| O=C(O)C(O)Cc1ccc(O)c(O)c1 (stereo not drawn) | -18% |
| COc1cc2oc(-c3ccccc3)cc(=O)c2c(O)c1OC | 9% |
| CC(=O)OCC(=O)[C@@]12N=C(C)O[C@@H]1C[C@H]1[C@@H]3CCC4=CC(=O)C=C[C@]4(C)[C@H]3[C@@H](O)C[C@@]12C | -13% |

Sample 4
Host: human
Medium: microsomes or S9
Concentration: 2 µM
Time: 0.5 h
| SMILES | remaining compound |
| --- | --- |
| O=C1CC(c2ccccc2Cl)CC2=C1C(c1ccc3c(c1)OCO3)Nc1ccccc1N2 (stereo not drawn) | 2.85% |
| CN1CCCCCCN(S(=O)(=O)c2cccc(F)c2)CCC1=O | 61.6% |
| CC1CCCC(C)C1NC(=O)Nc1cc(C#N)cn1C(C)(C)C (stereo not drawn) | 15.8% |
| Fc1ccccc1-c1cc(NC2CCNCC2)n2nccc2n1 | > 100% |
| CCOc1ccc(C2=NNC(c3ccncc3)=Nc3ccc(C(C)C)cc32)cc1 | 4.79% |
| O=c1cc(CSC2CCCCC2)nc2sc3c(n12)CCCC3 | 0.109% |
| COc1c(Cl)c(-c2cc(C3(O)CCCCC3)on2)c(OC)c2c1OCO2 | 6.76% |
| N#Cc1nc(-c2ccc(Br)o2)oc1N1CCC(C(=O)Nc2cnccc2O)CC1 | 50.8% |
| c1ccc2c(-c3cn4c5ccccc5n(CCN5CCCCC5)c4n3)cccc2c1 | 2.84% |
| CC1C(OC(=O)C2=CN3CCS(=O)(=O)N=C3C=C2)CC2CC1C2(C)C (stereo not drawn) | 53.8% |

Excerpt of the above (sample 3):
| Structure (SMILES) | inhibition |
| --- | --- |
| CC(=O)OCC(=O)[C@@]12N=C(C)O[C@@H]1C[C@H]1[C@@H]3CCC4=CC(=O)C=C[C@]4(C)[C@H]3[C@@H](O)C[C@@]12C | -13% |
| CCOC(=O)[C@H](CCc1ccccc1)N[C@@H](C)C(=O)N1C(=O)N(C)C[C@H]1C(=O)O | -1% |
| O=C(O)C(O)Cc1ccc(O)c(O)c1 (stereo not drawn) | -18% |
| C[C@@H]1O[C@@H](OC[C@H]2O[C@@H](Oc3cc(O)c4c(c3)O[C@H](c3ccc(O)c(O)c3)CC4=O)[C@H](O)[C@@H](O)[C@@H]2O)[C@H](O)[C@H](O)[C@H]1O | -6% |
| O=c1ccc2cc3ccoc3cc2o1 | 7% |
| COc1cc2oc(-c3ccccc3)cc(=O)c2c(O)c1OC | 9% |
